Experimental data collected from several papers.
Each line is one published result; not all experiments were run side by side.
Organism: Escherichia coli

For `CC(C)[C@@H]1NC(=O)[C@@H]2CCCN2C(=O)[C@@H](C)NC(=O)[C@H](CO)NC(=O)[C@H](C)NC(=O)[C@H](C(C)(C)C)NC(=O)[C@H](CCO)NC(=O)[C@H](Cc2c[nH]c3ccccc23)NC(=O)[C@H](CCO)NC(=O)[C@@H](CCN)NC(=O)[C@H](CCC(N)=O)NC(=O)[C@H](CCN)NC(=O)[C@H](Cc2ccc(O)cc2)NC(=O)[C@H]([C@@H](C)O)NC1=O`, the MIC was greater than 64 µg/mL (broth microdilution; NDM-1, CAMHB with polysorbate-80; 16 h).
With `CC[C@H](C)[C@H](NC(=O)[C@@H](Cc1ccccc1)NC)C(=O)OC[C@H](N)C(=O)N[C@H](CCCNC(=N)N)C(=O)N[C@@H](C(=O)N[C@H](C(=O)OC[C@H](N)C(=O)N[C@H]1C(=O)N[C@@H](C)C(=O)N[C@@H](CC(C)C)C(=O)N[C@@H]([C@@H](C)CC)C(=O)O[C@H]1C)[C@@H](C)CC)[C@@H](C)CC` the MIC was greater than 8 µg/mL (broth microdilution; ATCC 10798, Mueller-Hinton broth; 16 h, 37 °C).
The MIC of `CCCCCCCCCCCCCC(=O)N[C@H](CCN)C(=O)N[C@@H]1C(=O)N[C@@H](CCN)C(=O)N[C@@H](CC(C)C)C(=O)N[C@@H](CCN)C(=O)N[C@H](Cc2ccccc2)C(=O)N[C@@H](CC(C)C)C(=O)N[C@@H](CCN)C(=O)N[C@H](CCN)C(=O)N[C@@H](C(C)C)C(=O)N[C@@H](CC(=O)O)C(=O)O[C@@H]1C` is reported as 2 µg/mL (broth microdilution; ATCC 25922).
For `CCCCCCCCCCCCCCCCCCCCCCSCC1OC(OC2C(N)CC(N)C(OC3OC(CN)C(O)CC3N)C2O)C(O)C(N)C1O` (centres unmarked), the MIC was greater than 150 µg/mL (TolC, strain R).
`CCn1cc(C(=O)NCCCCCC(=O)N[C@@H](CCCNC(=N)N)C(=O)N[C@@H](CC(C)C)C(=O)N[C@@H](CC(C)C)C(=O)N[C@@H](CCCNC(=N)N)C(=O)N[C@@H](CCCNC(=N)N)C(=O)N[C@@H](CC(C)C)C(=O)N[C@@H](CC(C)C)C(=O)N[C@@H](CCCNC(=N)N)C(N)=O)c(=O)c2cc3c(cc21)OCO3` has an MIC of 34 µM (broth microdilution; ATCC 25922; 24 h, 37 °C).
`CC[C@H](C)[C@H](NC(=O)[C@H](CCN)NC(=O)CCCCCCCCCCCNC(=O)CCCCCO)C(=O)N[C@@H](CCN)C(=O)N[C@H](Cc1ccccc1)C(=O)N[C@@H](CC(C)C)C(=O)N[C@@H](CCN)C(=O)N[C@@H](C(=O)N[C@@H](CC(C)C)C(=O)N[C@@H](CO)C(N)=O)C(C)C` has an MIC of 12.5 µM (24 h, 37 °C).
With `COc1ccc2nc(C)cc(OCC(=O)Nc3ccccc3OC)c2c1` the MIC was greater than 64 µM (broth microdilution; 3).
For `NC[C@H]1OB(O)c2c(OCCO)cccc21`, the MIC was greater than 250 µM (LeuRS D342E, G333D, D345N or V335D).
For `CC[C@H](C)[C@H](NC(=O)[C@H](CCCCN)NC(=O)[C@H](CC(N)=O)NC(=O)[C@H](Cc1c[nH]c2ccccc12)NC(=O)[C@H](Cc1ccccc1)NC(=O)[C@H](CCCCN)NC(=O)[C@H](CCCNC(=N)N)NC(=O)[C@H](CC(C)C)NC(=O)[C@H](Cc1c[nH]c2ccccc12)NC(=O)[C@H](CCCCN)NC(=O)[C@H](CCCNC(=N)N)NC(=O)[C@H](CC(C)C)NC(=O)CNC(C)=O)C(=O)N[C@@H](CCCCN)C(=O)N[C@@H](CCCNC(=N)N)C(N)=O`, the MIC was 3.12 µM (broth microdilution; ATCC 25922).
With `C[C@@](O)(C(F)F)[C@H](NC(=O)c1ccc(C#CC#CC2CC2)cc1)C(=O)NO` the MIC was 0.01 µg/mL (broth microdilution; W3110, CAMHB).
For `CC[C@@H](C)[C@@H](NC(=O)[C@@H](C)NC(=O)[C@H](NC(=O)[C@@H](CC(=O)O)NC(=O)[C@@H](CCCCN)NC(=O)[C@@H](CO)NC(=O)[C@H](NC(=O)[C@@H](CC(N)=O)NC(=O)[C@@H](C)NC(=O)[C@H](NC(=O)[C@@H](CCC(=O)O)NC(=O)[C@@H](CCCCN)NC(=O)[C@H](NC(=O)[C@H](NC(=O)[C@@H](Cc1c[nH]cn1)NC(=O)[C@@H](CCCCN)NC(=O)[C@H](NC(=O)[C@@H](CCCCN)NC(=O)[C@@H](CCCCN)NC(=O)[C@H](NC(=O)[C@@H](CC(C)C)NC(=O)[C@@H](CCCCN)NC(=O)[C@@H](CC(N)=O)NC(=O)[C@@H](Cc1ccccc1)NC(=O)[C@@H](CCCNC(=N)N)NC(=O)[C@@H](CCCCN)NC(=O)[C@@H](CCCNC(=N)N)NC(=O)[C@@H](Cc1ccccc1)NC(=O)CN)C(C)C)C(C)C)[C@H](C)O)[C@H](C)CC)[C@H](C)O)C(C)C)C(C)C)C(=O)N[C@@H](C(=O)N[C@H](C)C(=O)NCC(=O)N[C@H](CO)C(=O)NCC(=O)N[C@@H](C(=O)N[C@H](C)C(=O)N[C@@H](C(=O)NCC(=O)N[C@H](C)C(=O)N[C@H](C)C(=O)N[C@H](CCSC)C(N)=O)C(C)C)C(C)C)C(C)C`, the MIC was 16 µg/mL (isolate RKI 131/03, CAMHB).
The MIC of `CCCCCCCCCCCCCCCC(=O)N[C@@H](CCCCN)C(=O)N[C@@H](CCCCN)C(=O)N[C@@H](CCCNC(=N)N)C(=O)N[C@@H](CCCCN)C(N)=O` is reported as 16 µg/mL (broth microdilution; K12, water pH 7; 18 h, 37 °C).
`CC[C@H](C)[C@H](N)C1=N[C@H](C(=O)N[C@@H](CC(C)C)C(=O)N[C@H](CCC(=O)O)C(=O)N[C@H](C(=O)N[C@H]2CCCCNC(=O)[C@H](CC(N)=O)NC(=O)[C@@H](CC(=O)O)NC(=O)[C@H](Cc3c[nH]cn3)NC(=O)[C@@H](CC(C)C)NC(=O)[C@H]([C@@H](C)CC)NC(=O)[C@@H](CCCN)NC2=O)[C@@H](C)CC)CS1` has an MIC of greater than 64 µg/mL (broth microdilution; ATCC 25922, LB medium; 18 h, 37 °C, with: ZnSO4 0.3 mM).
With `CC[C@@H](C)[C@@H](NC(=O)[C@@H](CCCCN)NC(=O)[C@H]1CCCN1C(=O)[C@H](NC(=O)[C@@H](CC(C)C)NC(=O)[C@@H](CCCCN)NC(=O)[C@@H](CC(C)C)NC(=O)[C@H](NC(=O)[C@@H](CO)NC(=O)CNC(=O)[C@@H](Cc1ccccc1)NC(=O)[C@H](N)Cc1ccccc1)C(C)C)[C@H](C)CC)C(=O)N[C@H](CC(C)C)C(N)=O` the MIC was 25 µM (broth microdilution; K12).
The MIC of `NCC1OC(OC2C(N)CC(N)C(OC3OC(CSc4ccccc4)C(O)C(N)C3O)C2O)C(N)CC1O` (centres unmarked) is reported as 37.5 µg/mL (BL21(DE3) pET22b).
`CCCCCCCCCCCCCCCCCC(=O)N[C@@H](CCCN)C(=O)N[C@@H](CCCN)C(=O)N[C@@H](CCCN)C(=O)N[C@@H](CCCN)C(=O)N[C@@H](CCCN)C(N)=O` has an MIC of 16 µg/mL (broth microdilution; K12; 16-24 h, 37 °C, prepared at pH 7).
For `CCCCCCSCC1OC(OC2C(N)CC(N)C(OC3OC(CN)C(O)CC3N)C2O)C(O)C(N)C1O` (centres unmarked), the MIC was 150 µg/mL (MC1061).
With `CC(C)[C@H](NC(=O)[C@H](CCCCN)NC(=O)[C@H](CCCNC(=N)N)NC(=O)[C@@H](NC(=O)[C@H](C)NC(=O)[C@H](CC(N)=O)NC(=O)[C@H](CCCNC(=N)N)NC(=O)[C@@H](NC(=O)[C@H](CCCCN)NC(=O)[C@H](CCCCN)NC(=O)[C@@H](NC(=O)[C@@H](NC(=O)[C@H](CCCNC(=N)N)NC(=O)[C@H](CCCNC(=N)N)NC(=O)[C@H](Cc1c[nH]c2ccccc12)NC(=O)[C@H](Cc1c[nH]c2ccccc12)NC(=O)CN)[C@@H](C)O)C(C)C)C(C)C)C(C)C)C(=O)O` the MIC was 8 µg/mL (ATCC 25922; 18 h, 37 °C).
The MIC of `CC[C@H](C)[C@H](NC(=O)[C@H](CCCCN)NC(=O)[C@H](CCC(=O)O)NC(=O)[C@H](CO)NC(=O)[C@H](CCCNC(=N)N)NC(=O)[C@@H](N)CO)C(=O)N[C@H](C(=O)N[C@@H](Cc1c[nH]cn1)C(=O)N[C@@H](CCC(N)=O)C(=O)N[C@@H](CCCNC(=N)N)C(=O)N[C@@H](CC(C)C)C(=O)N[C@@H](Cc1ccccc1)C(N)=O)C(C)C` is reported as greater than 400 µg/mL (broth microdilution; Mueller Hinton broth).
`CN[C@H](CC(C)C)C(=O)N[C@H]1C(=O)N[C@@H](CC(N)=O)C(=O)N[C@H]2C(=O)N[C@H]3C(=O)N[C@H](C(=O)N[C@H](C(=O)O)c4cc(O)cc(O)c4-c4cc3ccc4O)[C@H](O)c3ccc(c(Cl)c3)Oc3cc2cc(c3O[C@@H]2O[C@H](CO)[C@@H](O)[C@H](O)[C@H]2O[C@H]2C[C@](C)(NCc3ccc(OCc4cn(CCOCCOCCOCCC(=O)N[C@H](C(=O)N[C@@H](CCN)C(=O)N[C@H]5CCNC(=O)[C@H]([C@@H](C)O)NC(=O)[C@H](CCN)NC(=O)[C@H](CCN)NC(=O)[C@H](CC(C)C)NC(=O)[C@@H](CC(C)C)NC(=O)[C@H](CCN)NC5=O)[C@@H](C)O)nn4)c(OC)c3)[C@H](O)[C@H](C)O2)Oc2ccc(cc2Cl)[C@H]1O` gave an MIC of 32 µg/mL (broth microdilution; ATCC 25922; 18 to 20 h, 37 °C, 0.002% polysorbate 80).
`CC[C@H](C)[C@H](NC(=O)[C@H](CCCNC(=N)N)NC(=O)[C@@H]1CCCN1C(=O)[C@@H](NC(=O)[C@H](CCCNC(=N)N)NC(=O)[C@H](Cc1ccccc1)NC(=O)[C@H](CC(=O)O)NC(=O)[C@@H]1CCCN1C(=O)[C@@H]1CCCN1C(=O)[C@H](CO)NC(=O)[C@H](Cc1c[nH]c2ccccc12)NC(=O)[C@@H]1CCCN1C(=O)[C@@H]1CCCN1C(=O)[C@H](CC(C)C)NC(=O)[C@H](Cc1c[nH]c2ccccc12)NC(=O)[C@@H]1CCCN1C(=O)CNC(=O)[C@@H]1CCCN1C(=O)[C@H](Cc1c[nH]c2ccccc12)NC(=O)[C@H](CC(N)=O)NC(=O)[C@@H]1CCCN1C(=O)[C@@H]1CCCN1C(=O)[C@H](Cc1c[nH]c2ccccc12)NC(=O)[C@H](Cc1ccccc1)NC(=O)[C@@H]1CCCN1C(=O)[C@@H](NC(=O)[C@H](CCCNC(=N)N)NC(=O)[C@@H](N)CCCNC(=N)N)[C@@H](C)CC)[C@@H](C)CC)C(=O)N[C@@H](CC(C)C)C(=O)N[C@@H](CCCNC(=N)N)C(=O)N[C@@H](CCCCN)C(=O)N[C@@H](CCCNC(=N)N)C(=O)O` has an MIC of 7 µM (broth microdilution; BW25113 wild type, Mueller-Hinton broth; overnight, 37 °C).
With `Cc1cc(N)c2cc(NC(=O)c3ccc4cc(C(=O)N5CCN(C)CC5)ccc4c3)ccc2n1` the MIC was greater than 200 µM (hyperporinated wild type).
With `C#CCON=C1C(C)C(c2ccc(Br)cc2)OC(c2ccc(Br)cc2)C1C` (centres unmarked) the MIC was 12.5 µg/mL (microbial growth, broth dilution; MTCC443; 24 h).
With `Cc1cc(N)c2cc(NC(=O)c3ccc4cc(C5CC5)ccc4c3)ccc2n1` the MIC was 100 µM (ΔtolC efflux-deficient).
With `OB(O)c1cnn(-c2cccc(Cl)c2)c1` the MIC was 2 µg/mL (bacterial growth; TEM-3 ESBL clinical isolate; cefotaxime alone).
The MIC of `CCCO[C@H]1[C@H](O)[C@@H](N)[C@@H](O[C@H]2[C@H](O[C@@H]3O[C@H](CO)[C@@H](O[C@H]4O[C@@H](CN)[C@@H](O)[C@H](O)[C@H]4N)[C@H]3O)[C@@H](O)[C@H](N)C[C@@H]2N)O[C@@H]1CO` is reported as 32 µg/mL (broth microdilution; clinical isolate AG 055).

For quick reference, copied from above:
For `CCCCCCCCCCCCCCCCCCCCCCSCC1OC(OC2C(N)CC(N)C(OC3OC(CN)C(O)CC3N)C2O)C(O)C(N)C1O` (centres unmarked), the MIC was greater than 150 µg/mL (TolC, strain R).
`CCn1cc(C(=O)NCCCCCC(=O)N[C@@H](CCCNC(=N)N)C(=O)N[C@@H](CC(C)C)C(=O)N[C@@H](CC(C)C)C(=O)N[C@@H](CCCNC(=N)N)C(=O)N[C@@H](CCCNC(=N)N)C(=O)N[C@@H](CC(C)C)C(=O)N[C@@H](CC(C)C)C(=O)N[C@@H](CCCNC(=N)N)C(N)=O)c(=O)c2cc3c(cc21)OCO3` has an MIC of 34 µM (broth microdilution; ATCC 25922; 24 h, 37 °C).
